Published values pooled from the literature.
Each line is one published result; not all experiments were run side by side. ± gives the spread as reported.

| Structure (SMILES) | assay | test system | setting | how to read | endpoint | result |
| --- | --- | --- | --- | --- | --- | --- |
| CC12CCC(CC1)C(C)(C)O2 | headspace GC | liver microsomes | 15 min, pH 7.4 | reference: pygmy rabbit over mountain cottontail | detoxification rate ratio | 4.6 fold |
| Cc1nc2cccc(OCC(C)(C)C(=O)NC(C)C)c2c(N)c1C(=O)O | – | male Sprague-Dawley rat, plasma | dietary, 30 mg/kg/day, day 90 | – | Cmax | 46.8 ng/mL |
| CC[C@H](C)[C@H](NC(=O)[C@H](CC(C)C)NC(=O)[C@H](Cc1c[nH]c2ccccc12)NC(=O)[C@H](C)NC(=O)[C@@H](NC(=O)[C@H](Cc1ccccc1)NC(=O)[C@H](CC(=O)O)NC(=O)[C@H](CCCNC(=N)N)NC(=O)[C@H](C)NC(=O)[C@H](C)NC(=O)[C@H](CC(C)C)NC(=O)[C@H](C)NC(=O)[C@H](CC(=O)O)NC(=O)[C@H](CC(C)C)NC(=O)[C@@H](NC(=O)[C@@H](NC(=O)[C@H](C)NC(=O)[C@H](CC(C)C)NC(=O)[C@H](CCC(=O)O)NC(=O)[C@H](CO)NC(=O)[C@H](CO)NC(=O)[C@H](Cc1ccccc1)NC(=O)[C@@H](NC(=O)CNC(=O)[C@H](CCC(=O)O)NC(=O)CNC(=O)[C@@H](N)Cc1cnc[nH]1)[C@@H](C)O)[C@@H](C)O)[C@@H](C)CC)[C@@H](C)CC)C(=O)N[C@@H](C)C(=O)N[C@H](C(=O)N[C@@H](CCCCN)C(=O)N[C@H](C(=O)N[C@H](C(=O)N[C@@H](CC(=O)O)C(=O)N[C@@H](CCCCN)C(=O)N[C@@H](CCCCN)C(=O)N[C@@H](CCCCN)C(=O)N[C@@H](CCCCN)C(=O)N[C@@H](CCCCN)C(=O)N[C@@H](CCCCN)C(N)=O)[C@@H](C)O)[C@@H](C)CC)[C@@H](C)O | immunoaffinity LC-MS/MS | healthy human subjects, plasma | intravenous infusion, 1 mg single dose, infused over 15 min | – | AUCinf | 0.0405 µM·h |
| COc1cccc(-c2ccc(NC(=O)C3=C(C(=O)O)CCC3)c(F)c2)c1 | – | human, male, plasma | oral, 50 mg once daily, day 0, geometric mean, pre-dosed | – | AUC(0-24h) | 107000 ng·h/mL |
| CC(=O)N[C@@H](Cc1ccccc1)C(=O)N[C@H]1CCCNC(=O)[C@H](CCCNC(=N)N)NC(=O)[C@H](Cc2c[nH]c3ccccc23)NC(=O)[C@@H](CC2CCCCC2)NC(=O)[C@@H]2CCCN2C1=O | – | C57BL/6J mice, spinal cord | subcutaneous, 1 mg/kg | – | elimination half-life | 0.37 h |
| CC(=O)N1CCN(c2ccc(OCC3COC(Cn4ccnc4)(c4ccc(Cl)cc4Cl)O3)cc2)CC1 (stereo not drawn) | cytochrome c release, ELISA | BALB/cByJ female mouse liver mitochondria | 30 min | reference: alamethicin maximal release | EC20 | > 400 µM |
| O=C([O-])CN1CCN(CC(=O)[O-])CCN(Cc2ccc([N+](=O)[O-])cc2)CCN(CC(=O)[O-])CC1.[67Ga+3] | RP-TLC | murine plasma | 3 h, 37 °C, 5% CO2 | – | intact radiolabelled complex | 96.7 ± 0.5% |
| Cc1cccc(C)c1OCC(=O)N[C@@H](Cc1ccccc1)[C@@H](O)C[C@H](Cc1ccccc1)NC(=O)[C@H](C(C)C)N1CCCNC1=O | USP paddle apparatus | Tween in phosphate buffer | concentration not given, 5 min, pH 6.8, 37 °C | – | amount dissolved | 1.56% |
| S=C(NCCCc1c[nH]cn1)NCCCN(Cc1ccc(Cl)c(Cl)c1)c1ccc(Br)cn1 | – | male C57BL/6 mouse, plasma | intraperitoneal, 30 mg/kg, 15 min | – | concentration | 2360 ng/mL |
| CNCc1ccc(-c2[nH]c3cc(F)cc4c3c2CCNC4=O)cc1 | – | human, plasma | oral, 300 mg, fed, high-fat meal, median | – | half-life | 20.5 h |
| Cc1c(N(C)CS(=O)(=O)[O-])c(=O)n(-c2ccccc2)n1C.[Na+] | cytochrome c release, ELISA | mouse liver mitochondria | 30 min | reference: maximal release by alamethicin | EC20 | > 200 µM |
| C[C@H](Oc1ccc(-c2nc(-c3ccc4[nH]cnc4c3)no2)cc1C(F)(F)F)C(F)(F)F | – | cynomolgus monkey, aneurysm model, plasma | 0.1 mg/kg once daily, 4 h post-dose, 12 months dosing | – | plasma concentration | 20 ± 1.3 nM |
| Cc1nc(Nc2ncc(C(=O)Nc3c(C)cccc3Cl)s2)cc(N2CCN(CCO)CC2)n1 | – | Sprague-Dawley rat, female, plasma | intraperitoneal, 5 mg/kg, together with: rosiglitazone co-dosed | – | MRT(0-24 h) | 5.06 ± 0.94 h |
| Nc1cc(-c2ccccc2)ccc1Cn1cncc1CNc1ccc(Cl)c(-c2ccccc2)c1 | – | female BALB/c mice, plasma | oral, 50 mg/kg single dose | – | AUC(0-5 h) | 6700 ng·h/mL |
| CN1C(C(=O)Nc2ccccn2)=C(O)c2ccccc2S1(=O)=O | cytochrome c release, ELISA | BALB/cByJ female mouse liver mitochondria | 30 min | reference: alamethicin maximal release | EC20 | > 200 µM |
